Published values pooled from the literature.
Numbered parts are unrelated; each lists some results of a single study.

Sample 1
Target: Histone acetyltransferase KAT6A, winged helix 2, GST fusion (KAT6A, Homo sapiens, UniProt Q92794, residues 85-181)
Method: protein binding microarray
Molecule type: double-stranded DNA, one strand shown
Medium: in vitro
Concentration: not given
Notes: 8-mer, flanks averaged, mean of 2 arrays, mostly near background
Relative to: not given
Direction: higher = stronger binding
Endpoint: E-score
Target sequence (chain): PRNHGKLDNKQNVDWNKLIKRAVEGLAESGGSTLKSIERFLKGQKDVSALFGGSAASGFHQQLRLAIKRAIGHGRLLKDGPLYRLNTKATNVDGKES
AATAGAAA: -0.0101
CTACTAAA: 0.00359
TGACCTCA: -0.0823
AAGGGTAT: -0.103
ATTTCTCG: 0.182
AAAAACAG: -0.0347
GCAACGGC: 0.23
CAAGGAAG: 0.0267
ACCACCCT: -0.162
CGCGCCTC: 0.0735
CTACTTGC: 0.0792
ACAGCGTA: 0.0738
TGAAGGAA: -0.0427
ACGGTGAT: -0.0645
ACCGAAAT: -0.0575
GGAATAAA: 0.0898
ATCCAGCA: 0.0117
AGCACCTA: -0.123

Sample 2
Target: Centromere-binding protein 1, full length, N-terminal tag (CBF1, Saccharomyces cerevisiae, UniProt P17106, residues 1-351)
Sequence of UniProt P17106 (whole entry, looked up): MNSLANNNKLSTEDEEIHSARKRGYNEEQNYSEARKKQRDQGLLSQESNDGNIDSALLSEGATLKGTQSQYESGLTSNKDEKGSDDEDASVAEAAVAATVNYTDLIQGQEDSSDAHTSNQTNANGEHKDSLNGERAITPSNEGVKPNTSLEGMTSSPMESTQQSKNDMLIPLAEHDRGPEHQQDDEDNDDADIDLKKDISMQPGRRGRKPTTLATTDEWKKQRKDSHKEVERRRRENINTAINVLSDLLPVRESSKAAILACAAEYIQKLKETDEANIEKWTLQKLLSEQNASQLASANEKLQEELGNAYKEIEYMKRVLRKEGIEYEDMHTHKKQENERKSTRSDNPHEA
Method: protein-binding microarray
Molecule type: double-stranded DNA, one strand shown
Medium: in vitro
Concentration: 0.8 µM
Notes: whole 60-bp probe, no competitor
Direction: higher = stronger binding
Endpoint: fluorescence intensity
Constant ends, left off below: … GTCTTGATTCGCTTGACGCTGCTG
CTATTGCGCTTGCGGCACATGTAATGTAGTTTCTTC: 627 a.u.
CTAAACCGCAGACATGATGTCCTCTTCTTTCAATTC: 509 a.u.
GAATTTCGCACGTTGCACGAGTCGCAATGAATATAG: 717 a.u.
CTAATATCAAAGGATCACGACTAAAGTACCAAGTTC: 577 a.u.
GAACTTCTCCATTTTCACGTGCTAAAAAAGTTCTAG: 7560 a.u.
GAACCAGTGATGAAGCACCTGATTCAACTGCCGTAG: 1080 a.u.
CTAAAGAGACAACTTTACATCAGCCTTCATATTTTC: 511 a.u.
GAACGGATGCTATGTCACGTTGAATTAGACCGTTAG: 1120 a.u.
CTAAAACTGCAGCATCATGATGTTCCTAGACGTTTC: 512 a.u.
CTAAGTAGCCGTTTCCACGTTTTAACGGCTTGTTTC: 461 a.u.
CTAATTATCATATAAGACGTGACAAGATGACATTTC: 711 a.u.
CTAATTGGGCTCTATCACGATACTCCATTTAACTTC: 722 a.u.
CTAGCGGCCTCTGTACACCTCACGCTAAATAGCTTC: 554 a.u.
GAAAGCAAAAGGCAGTGCGTGATAATGTTTCTATAG: 660 a.u.
GAACATAACTTGCGTCACCATTTAACACCGTATTAG: 555 a.u.
CTACTAGGTTCGGGTGACGTGAAGATAACGAAATTC: 553 a.u.

Sample 3
Target: Ras GTPase-activating protein-binding protein 1, full length (G3BP1, Homo sapiens, UniProt Q13283)
Sequence of UniProt Q13283 (whole entry, looked up): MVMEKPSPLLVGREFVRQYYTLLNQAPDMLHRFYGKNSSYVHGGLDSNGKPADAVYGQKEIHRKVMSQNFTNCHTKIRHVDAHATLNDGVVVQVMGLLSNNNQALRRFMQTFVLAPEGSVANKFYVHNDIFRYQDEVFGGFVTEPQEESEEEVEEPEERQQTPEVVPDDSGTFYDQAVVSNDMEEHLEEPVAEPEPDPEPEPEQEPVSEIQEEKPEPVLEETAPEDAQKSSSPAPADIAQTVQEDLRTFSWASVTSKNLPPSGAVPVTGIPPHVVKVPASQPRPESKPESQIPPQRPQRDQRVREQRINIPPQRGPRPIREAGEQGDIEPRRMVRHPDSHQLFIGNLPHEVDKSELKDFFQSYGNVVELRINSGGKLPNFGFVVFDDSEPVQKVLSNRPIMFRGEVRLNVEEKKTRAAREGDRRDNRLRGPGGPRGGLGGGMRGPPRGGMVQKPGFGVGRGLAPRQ
Method: RNA Bind-n-Seq
Molecule type: RNA
Medium: in vitro
Concentration: 200 nM
Notes: whole 134-nt RNA, ends assumed
Together with: 150 mM KCl
Relative to: input library
Direction: higher = stronger binding
Endpoint: log2 enrichment
Constant ends, left off below: GGGAGUUCUACAGUCCGACGAUC … UGGAAUUCUCGGGUGUCAAGG
CACAGACAACACGCACCCACACAGACACAGAGGGAAGGGGCUGGGAUGGGGACAGGGUGCACAGCAGGGCGGGGUAGGACCCCAGCCCCU: 1.88
CUCAAGUCCUGUGCUACACAUCGUAUGUACCGAAUCGGGGUUGGUUGGUUGGGAAAGUAUUAUGUUACGCCGUUCGGAUCUGCACUUCCA: 0.0779
UGGGAGGUGGAUUUUGUUUAUUUUUUUAGCUCAUUUCCAGGGGUGGGAAUUUUUUUUUAAUAUGUGUCAUGAAGAAAGUUGUUUUUGAAA: 0.22
UGGGAGGUGGAUUUUGUUUAUUUUUUUAGCUCAUUUCCAGGGGUGGGAAUUUUUUUUUAAUAUGUGUCAUUAAUAAAGUUGUUUUUGAAA: 0.24
UGGCCCUGGUGGCAUGCGGGGAGGAAGAGGUGGCCUCAUGGAUCGUGGUGGUCCCGGUGGAAUGUUCUGAGGUGGCCGUGGUGGAGACAG: 0.194
UUUAAACUGAAGCCGCGGCCGAAAACGCCAAGAGAUUGAUGCUGUAGCUGCCCUGAGAUAACCAGGACUGUGGAAUCGGGAAGAGCUCAU: -0.381
GUCCUGUGCUACACAUCGUAUGUACCGAAUCGGGUUUUUUUGGGUUUUUGGGUUUGGGAAAGUAUUAUGUUACGCCGUUCGGAUCUGCAC: -0.479
UCAAGUCCUGUGCUACACAUCGUAUGUACCGAAUCGGGUUGGGUUGGGUUGGGGAAAGUAUUAUGUUACGCCGUUCGGAUCUGCACUUCC: 1.35
CACAGACAACACGCACCCACACAGACACAGAGGGAAGGGGUUGGGAUGGGGACAGGGUGCACAGCAGGGCGGGGUAGGACCCAAACCCCU: 1.82
AGUCCUGUGCUACACAUCGUAUGUACCGAAUCGGGAAAAAAAGGGAAAAAGGGAGGGAAAGUAUUAUGUUACGCCGUUCGGAUCUGCACU: 0.0563
UUCAUGAGGACCUCCGCCUGCUCUUGGAGACCCACCUGCCGUCCAAAAAGAAGAAAGUACUCUUGGGAGUUGGGGAUCCCAAGAUUGGUG: 0.0399
UUUCUCUCACCAGGUACCAGGUCAUCAGUACACCAUCUGAUAUUUUCAUGGUGAUGGAAUAUGUCUCAGGAGGAGAGCUAUUUGAUUAUA: -0.821
UCAAGUCCUGUGCUACACAUCGUAUGUACCGAAUCGGUUUUUGGUGGUUUUUGGAAAGUAUUAUGUUACGCCGUUCGGAUCUGCACUUCC: -0.85
AGUCCUGUGCUACACAUCGUAUGUACCGAAUCGGCCCCGGGGCCCCGGGCCCCGGGGAAAGUAUUAUGUUACGCCGUUCGGAUCUGCACU: -1.21

Sample 4
Target: RNA binding protein fox-1 homolog 2, RRM domain, GST-SBP tag (RBFOX2, Homo sapiens, UniProt O43251-10, residues 100-194)
Method: RNA Bind-n-Seq
Molecule type: RNA
Medium: in vitro
Concentration: 365 nM
Notes: natural RNA segment, single round, ends assumed
Relative to: no-protein control
Direction: higher = stronger binding
Endpoint: RBNS enrichment (R)
Constant ends, left off below: GGGAGUUCUACAGUCCGACGAUC … UGGAAUUCUCGGGUGCCAA
Residues (chain): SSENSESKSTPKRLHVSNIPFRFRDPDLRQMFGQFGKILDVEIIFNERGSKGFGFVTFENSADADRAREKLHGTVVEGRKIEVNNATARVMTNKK
UUAGGAGCUGAUAUUAUCAGUUGGAAUUAAGAGAACUCCAGAGGUUUCCAUUUCAAACAAAAUUUUAGAAAUUGGUUUGGUGUUCAGCUUCACAUUUCAUUUUUUCUUAG: 0.997
UGGGACUUGAGAUUUGAGGAAAAAAGAUGCUUAUUUGGAAUUUCUAUUAAGAACUAUCCUUGUUAUUUUCUUAGCUCAAUAAUUACUCAAGAAAAAUAAAAGAUUAUAAU: 0.585
UCGAACCUGACCAUUGCAGGUGAUCGUGGCCUCGGAGGCCAGCACAGAAUUCUUUCACACUUUUGCAGAAAUGUGUAUAUUUAAUGCUGUGCGACUGCUAAACUGCAGGU: 0.28
AAAACUAGAGAAUUAGCCAUAUUAAGGAUUUUUCUUGACUGCAAAUUACUUCUAAAGAAUCAUCAGUGUAUAGAUUAGAAGUGCUCAUUACCUGCAACUUUUAAAAAAAA: 0.52
AAUAAUUGUUUUUGACUUUCAUAUGUAAAUUUUUUCUACUGAAAGUGUUUUGCUUUUUAAGAAAAUGAAAUUAUAUAGCAGGAAAGGACUAUCUUUGAACAUAAGUUAAU: 0.488
CGGGCCUCAGUUUCCUCAAUCAUAGAAGAAGACCAAUAGACAAGAUCAGCUGUUCUUAGAUGCUGGUGGGCAUUUGAACAUGCUCCUCCAUGAUUCUGAAGCAUGCACAC: 4.17
AUGUCAGGGUUCUGCUCGGCUUCUUGGACCUUGGCGCUUAGUCCCCAUCCCGGGUUUGGCUGAGCCUGGCUGGAGAGCUGCUAUGCUAAACCUCCUGCCUCCCAAUACCA: 0.56
CAUCUCAAGCACUCAGAGCUCUGUGAGCUUGCCUACUGUGCGCAGGAUCUCCCCAAGUAUGUCCUACUCUGUGCACCCUGUGCUGGAGCCCUACUUUUCACCCCGCUGCC: 0.632
AGUGGCAUCUAUCAGUAAUUGCUUUCCUUUUUAUUGCUGGGCUGAAUGCUGUUCCAUUGUAUGGCUGUGUCAGAUUUUGUUUGUUCAUUCACCAGUUGAUAGACAUGUAG: 0.334
CCAGUGUCUGGACUGCUAUAUUGGGUUGGGGGCUGGUUCUGGAACUCAGUCUGCGCCUCUAUAGGUUCUUGUAGAGCCUUGGUUGUUUCUGGCCUCUGCCUGGGACAGUA: 1.09
CAUCAGAUCUUGUGAAACUUAUUCACUAUCACAAGAAUAGCAUGGGAAAGACUGGCCCCCAUGAUUCAAUUACCUCCCCUUGGGUCUCUCCCACAACACGUGGGAAUUCU: 0.499
AAGGCAAGCCUCAGACCAGCAAUAAAUUACUCAGUUUGGAUAACAUUAUUUUGUGCAGUUAAUCAAAUUUGCCAAAGUCUUUAUCUGCCCCUUUAACAAGUUGAGUAAAA: 0.464

Sample 5
Target: RING finger protein unkempt homolog, zinc fingers 1-6, GST-SBP tag (UNK, Homo sapiens, UniProt Q9C0B0, residues 30-357)
Sequence of UniProt Q9C0B0 (30-357, looked up): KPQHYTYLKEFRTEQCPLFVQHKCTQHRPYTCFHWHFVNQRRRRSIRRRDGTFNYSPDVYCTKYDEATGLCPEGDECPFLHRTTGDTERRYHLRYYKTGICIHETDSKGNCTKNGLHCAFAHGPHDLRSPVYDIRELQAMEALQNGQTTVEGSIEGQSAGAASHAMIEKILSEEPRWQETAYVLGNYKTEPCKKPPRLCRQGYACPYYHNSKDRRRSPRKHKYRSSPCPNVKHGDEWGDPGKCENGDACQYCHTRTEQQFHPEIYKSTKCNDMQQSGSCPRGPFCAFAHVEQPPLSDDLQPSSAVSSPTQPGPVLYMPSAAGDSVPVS
Method: RNA Bind-n-Seq
Molecule type: RNA
Medium: in vitro
Concentration: not given
Notes: RNA with constant flanks, ends assumed
Relative to: input RNA pool
Direction: higher = stronger binding
Endpoint: bound/input enrichment
Constant ends, left off below: GGGAGUUCUACAGUCCGACGAUC … CAACAGAGGAUUGAGCAUCA
ACAAAAAUCAAGAAAAUGUUUCUCACCUCUCAGUUUCUUCUGCUUCACCAACAUCGUCCGCCGCAUCAGCUGCAGGAAGUGUAACAAGCUCUAGUCUUCAGAAAUCUCCUACGCUGCUCA: 0.299 ratio
UUUUUGGGGAUUGCUUACAUCGCUGUUGGAUCCAUCUCCUUCCUUCUGGGAGUUGUACUGCCCGUAAUUAAUCAUAAAUAUAGAAACAGUAGUAAUACAGCUGACAUUACCAUUUAAUUU: 5 ratio
GAUGAAUUGAUGACCCUGGCUCAUAAGCACAUUGUCAAGACUGUGGAUUUCACACAGGACCGCAAUUACCUGCUAACUGGGGGACAGGAUAAACUGCUGCGCAUAUAUGACUUGAACAAA: 0.246 ratio
GCUGAGGGAGUCGACUUAAUUAAGGUCUUCGCAAAAACAGAAGCACAGAGAGGAGCAUAUACCGAAUCCGCACUUCAAACUUAUCAAGAAAUAGUUACCAGUCAUUCCGCAGCAUCCUGA: 0.296 ratio
UUUGUUUUGUUUGGGGGCCUUUUUUUUUUCCCUAGAAGAUAUGGAGAGCCUUCUUGUCCAACCCGAUUGUUCACCAUCAGCCUGGAACUCUCACUGAACCACCACAGAAAUCGUGGCGAU: 0.282 ratio
CCUGACAGCUGGGUGUGUGACUUAGGUAGGUGAGCCUGUGAAACAGUAUGAAGAGAAGAAAACCGCCUUUUAAAGAGACUGGCCCACAGAAAGGAUGGCCUUCUUGGACAAUCCAACUAU: 0.34 ratio
UGCACUCUUCUGUUCAUUCUGACCCCUUCCUCAACCUCUUCACGCUGGCAUGUCCUUUUGCCGCAGUCUGUAACUUAACUAUAGUAUAAUGAAAAGAAUGACCUAUAAUAUAGGUGUUUU: 2.01 ratio
CUAUAGAGGGAAAUAAUAGACAGAUUAAGAUGAAAGAAAAGCUUUCUGGGAUGAUUCAGUUACCGGAAAUGCCAAGAAAAGGGCAUUUAAUUAUAAUAUCCUAAUUUUACAUCACAACAU: 1.68 ratio
GAGGAAACAGACUAUACUCCCGUUUGGUGCAUGAGACAGGCAGGCCGCUACUUACCAGAGUUCCGGGAAACCAGGGCUGCCCAGGACUUCUUCAGCACCUGCCGAUCUCCCGAGGCUUGC: 0.135 ratio
CAUUAAUUUCAACACAUGGGAACACAUGUACAGAAGAUUUUUUUUUUUUUUUUUUUUUUUUUCCGCUACUCGAGAACUUUUCAUAGAUGAACUUUUUAACAAAUGUUUUCAUUUACAGGA: 3.25 ratio
GCCUUGGCUCCACCCAGUGUGCUUAGUACCAACGUAGGCAGUGUGUACAACACGAAGAAAGCCGGCAAGAGGCUCAACAUCCAGCUUAAGAAAGGUACAGAAGGACUGGGAUUCAGCAUC: 0.131 ratio

Repeated from above (sample 5):
GCUGAGGGAGUCGACUUAAUUAAGGUCUUCGCAAAAACAGAAGCACAGAGAGGAGCAUAUACCGAAUCCGCACUUCAAACUUAUCAAGAAAUAGUUACCAGUCAUUCCGCAGCAUCCUGA: 0.296 ratio
UUUGUUUUGUUUGGGGGCCUUUUUUUUUUCCCUAGAAGAUAUGGAGAGCCUUCUUGUCCAACCCGAUUGUUCACCAUCAGCCUGGAACUCUCACUGAACCACCACAGAAAUCGUGGCGAU: 0.282 ratio
CCUGACAGCUGGGUGUGUGACUUAGGUAGGUGAGCCUGUGAAACAGUAUGAAGAGAAGAAAACCGCCUUUUAAAGAGACUGGCCCACAGAAAGGAUGGCCUUCUUGGACAAUCCAACUAU: 0.34 ratio
UGCACUCUUCUGUUCAUUCUGACCCCUUCCUCAACCUCUUCACGCUGGCAUGUCCUUUUGCCGCAGUCUGUAACUUAACUAUAGUAUAAUGAAAAGAAUGACCUAUAAUAUAGGUGUUUU: 2.01 ratio
CUAUAGAGGGAAAUAAUAGACAGAUUAAGAUGAAAGAAAAGCUUUCUGGGAUGAUUCAGUUACCGGAAAUGCCAAGAAAAGGGCAUUUAAUUAUAAUAUCCUAAUUUUACAUCACAACAU: 1.68 ratio
GAGGAAACAGACUAUACUCCCGUUUGGUGCAUGAGACAGGCAGGCCGCUACUUACCAGAGUUCCGGGAAACCAGGGCUGCCCAGGACUUCUUCAGCACCUGCCGAUCUCCCGAGGCUUGC: 0.135 ratio
